{"data": "Assay results collected from several papers", "cell line": "HepG2", "note": "Numbers after ± are the reported error."}
{"SMILES": "OCCN1CCN(CC/C=C2/c3ccccc3Sc3ccc(C(F)(F)F)cc32)CC1", "assay": "cell viability, ATP content", "setting": "24 h", "IC50": "62.8 µM"}
{"SMILES": "N#Cc1c(-c2ccc(Cl)cc2)c2c(=O)[nH]nnc2n(C2CCCCC2)c1=O", "assay": "cell growth or viability, MTT", "IC50": "0.99 µM"}
{"SMILES": "O=C(Nc1cccc(Cl)c1)/C(=C/c1ccc(F)cc1)NC(=O)c1ccccc1", "setting": "concentration not given", "IC50": "23.7 ± 1.32 µM"}
{"SMILES": "O=C(CN1CCN(c2nc3ccccc3[nH]c2=O)CC1)Nc1ccc(Cl)cc1", "assay": "cell growth or viability, MTT", "setting": "24 h", "IC50": "10.4 µM"}
{"SMILES": "COc1ccc(CNC(=O)/C(=C/c2ccc(F)cc2)NC(=O)c2ccccc2)cc1OC", "setting": "concentration not given", "IC50": "22.4 ± 0.88 µM"}
{"SMILES": "CC(=NN=c1sc(-c2cccs2)nn1-c1ccc([N+](=O)[O-])cc1)c1ccccc1", "assay": "cell growth or viability", "IC50": "72.6 µM"}
{"SMILES": "COc1ccc(/C=N/NC(=O)c2ccc(-c3cc(OC)c(OC)c(OC)c3)nc2C)cc1OC", "assay": "cell growth or viability, MTT", "IC50": "5.87 µM"}
{"SMILES": "O=C1Nc2ccccc2C1=NN=c1sc(-c2cccs2)nn1-c1ccc([N+](=O)[O-])cc1", "assay": "cell growth or viability", "IC50": "22.4 µM"}
{"SMILES": "CCOC(=O)Cn1c(-c2ccc(Cl)cc2)cc(-c2ccc(O)c(OC)c2)c(C#N)c1=O", "assay": "cell growth or viability, MTT", "IC50": "2.19 µM"}
{"SMILES": "Cc1c(C(=O)/C=C/c2cc3ccccc3o2)nnn1-c1c(Cl)cc(Cl)cc1Cl", "assay": "cell growth or viability, MTT", "IC50": "9.7 µM"}
{"SMILES": "CCOc1ccc(/C=N/NC(=O)c2ccc(-c3cc(OC)c(OC)c(OC)c3)nc2C)cc1", "assay": "cell growth or viability, MTT", "IC50": "36.3 µM"}
{"SMILES": "Cc1ccc(NCC(=O)n2ncc3c(=N)n(N)cnc32)cc1", "assay": "cell growth or viability, MTT", "setting": "48 h", "IC50": "0.937 µM"}
{"SMILES": "Cc1nc2ccccc2n(CC(=O)Nc2ccc(C(=O)Nc3cccc(Cl)c3)cc2)c1=O", "assay": "cell growth, MTT", "IC50": "2.8 µM"}
{"SMILES": "O=C(CN1CCN(c2nc3ccccc3nc2Cl)CC1)NCc1ccccc1", "assay": "cell growth or viability, MTT", "setting": "24 h", "IC50": "9.52 µM"}
{"SMILES": "CCOc1nc2c(c(-c3ccc(Cl)cc3)c(C#N)c(=O)n2C2CCCCC2)c(=O)[nH]1", "assay": "cell growth or viability, MTT", "IC50": "8.1 µM"}
{"SMILES": "COc1ccc(-c2cc(-c3ccc(N(C)C)cc3)c3c(=O)n(C)c(=O)n(C)c3n2)cc1", "assay": "cell growth or viability, MTT", "setting": "48 h", "IC50": "< 5 µM"}
{"SMILES": "CCCCCCCC[N+](CCCCCCCC)(CCCCCCCC)CCCCCCCC", "assay": "LDH release", "setting": "5 h", "IC50": "28.1 µM"}
{"SMILES": "CC(C)(C)c1cc(C(C)(C)C)c(NC(=O)c2c[nH]c3ccccc3c2=O)cc1O", "assay": "oxygen consumption rate, inhibitor, Seahorse Mito Stress Test", "setting": "1 h", "scale": "baseline: DMSO 0.2%", "IC50": "10.3 µM"}
{"SMILES": "Cc1nc2ccccc2nc1SCC(=O)Nc1ccc(C(=O)Nc2ccc([N+](=O)[O-])cc2O)cc1", "assay": "cell growth or viability, MTT", "IC50": "42.8 µM"}
{"SMILES": "CNC(=O)c1cc(Oc2ccc(NC(=O)Nc3ccc(Cl)c(C(F)(F)F)c3)cc2)ccn1", "assay": "cell growth or viability, MTT", "setting": "48 h", "IC50": "0.019 µM"}
{"SMILES": "Cc1nc2ccccc2nc1SCC(=O)Nc1ccc(C(=O)Nc2ccc(O)cc2)cc1", "assay": "cell growth or viability, MTT", "IC50": "50.4 µM"}
{"SMILES": "COc1cccc2c1C(=O)c1c(O)c3c(c(O)c1C2=O)C[C@@](O)(C(=O)CO)C[C@@H]3O[C@H]1C[C@H](N)[C@H](O)[C@H](C)O1", "assay": "cell growth or viability, MTT", "IC50": "2.78 µM"}
{"SMILES": "COc1cc(-c2ccc(C(=O)N/N=C/c3ccc([N+](=O)[O-])cc3)c(C)n2)cc(OC)c1OC", "assay": "cell growth or viability, MTT", "IC50": "3.74 µM"}
{"SMILES": "COc1cc(/C=C/C(=O)CC(=O)/C=C/c2ccc(O)c(OC)c2)ccc1O", "assay": "cell growth or viability, MTT", "setting": "48 h", "IC50": "15.8 µg/mL"}
{"SMILES": "COc1ccc(NC(=O)CN2CCN(c3nc4ccccc4[nH]c3=O)CC2)cc1", "assay": "cell viability, MTT", "setting": "24 h", "IC50": "8.35 µM"}
{"SMILES": "Cc1ccc(NCC(=O)n2ncc3c2ncn2nc(SCC(O)CO)nc32)cc1 (stereo not shown)", "assay": "cell growth or viability, MTT", "setting": "48 h", "IC50": "0.063 µM"}
{"SMILES": "CSc1ccc2c(c1)C(N1CCN(C)CC1)Cc1ccccc1S2 (stereo not shown)", "assay": "cell viability, ATP content", "setting": "24 h", "IC50": "63.2 ± 10.3 µM"}
{"SMILES": "CNC(=O)c1cc(Oc2ccc(NC(=O)Nc3ccc(Cl)c(C(F)(F)F)c3)cc2)ccn1", "assay": "cell growth or viability, MTT", "setting": "24 h", "IC50": "7.31 µM"}
{"SMILES": "COc1cc(-c2cc(-c3ccc(Cl)cc3)n(CN(C)C)c(=O)c2C#N)ccc1O", "assay": "cell growth or viability, MTT", "IC50": "3.47 µM"}
{"SMILES": "O=C(Nc1ccccc1)/C(=C/c1ccc(F)cc1)NC(=O)c1ccccc1", "setting": "concentration not given", "IC50": "53.2 ± 1.73 µM"}
{"SMILES": "O=C(CN1CCN(c2nc3ccccc3[nH]c2=O)CC1)Nc1ccc([N+](=O)[O-])cc1", "assay": "cell growth or viability, MTT", "setting": "24 h", "IC50": "12.6 µM"}
{"SMILES": "CCCCNC(=O)c1ccc(NC(=O)Cn2c(=O)c(C)nc3ccccc32)cc1", "assay": "cell growth or viability, MTT", "IC50": "24.5 µM"}
{"SMILES": "N#Cc1c(-c2ccc(Cl)cc2)c2c(=O)[nH]c(-c3ccco3)nc2n(C2CCCCC2)c1=O", "assay": "cell growth or viability, MTT", "IC50": "13.4 µM"}
{"SMILES": "Cc1cccc(CNC(=O)/C(=C/c2ccc(F)cc2)NC(=O)c2ccccc2)c1", "setting": "concentration not given", "IC50": "34.6 ± 1.16 µM"}
{"SMILES": "O=[N+]([O-])c1ccc(-n2nc(-c3cccs3)sc2=NN=C2CCCC2)cc1", "assay": "cell growth or viability", "IC50": "70.1 µM"}
{"SMILES": "CC(=O)c1ccc(NC(=O)CN2CCN(c3nc4ccccc4[nH]c3=O)CC2)cc1", "assay": "cell viability, MTT", "setting": "24 h", "IC50": "8.85 µM"}
{"SMILES": "CC(=O)OCC(CSc1nc2c3cnn(C(=O)CNc4ccc(C)cc4)c3ncn2n1)OC(C)=O (stereo not shown)", "assay": "cell growth or viability, MTT", "setting": "48 h", "IC50": "0.09 µM"}
{"SMILES": "O=C(N/N=C/c1ccc(O)cc1)/C(=C/c1ccc(F)cc1)NC(=O)c1ccccc1", "setting": "concentration not given", "IC50": "19.6 ± 0.33 µM"}
{"SMILES": "COc1cc(-c2ccc(C(=O)N/N=C/c3ccc(O)cc3)c(C)n2)cc(OC)c1OC", "assay": "cell growth or viability, MTT", "IC50": "15.4 µM"}
{"SMILES": "Cc1nc2ccccc2nc1SCC(=O)Nc1ccc(C(=O)Nc2cccc(Cl)c2)cc1", "assay": "cell growth or viability, MTT", "IC50": "4.2 µM"}
{"SMILES": "O=[N+]([O-])c1ccc(-n2nc(-c3cccs3)sc2=NN=C2CCCc3ccccc32)cc1", "assay": "cell growth or viability", "IC50": "68.9 µM"}
{"SMILES": "O=C(N/N=C/c1ccccc1O)/C(=C/c1ccc(F)cc1)NC(=O)c1ccccc1", "setting": "concentration not given", "IC50": "27.3 ± 1.29 µM"}
{"SMILES": "COc1cc(-c2ccc(-c3nnc(SCCCBr)o3)c(C)n2)cc(OC)c1OC", "assay": "cell growth or viability, MTT", "IC50": "19.3 µM"}
{"SMILES": "CNC(=O)c1cc(Oc2ccc(NC(=O)Nc3ccc(Cl)c(C(F)(F)F)c3)cc2)ccn1", "assay": "cell proliferation, MTT", "setting": "48 h, miR-140-3p plus inhibitor", "IC50": "1.4 ± 0.26 µM"}
{"SMILES": "COc1cc(-c2cc(-c3ccc(Cl)cc3)n(CN3CCCCC3)c(=O)c2C#N)ccc1O", "assay": "cell growth or viability, MTT", "IC50": "≥ 50 µM"}
{"SMILES": "COC(CSc1nc2c3cnn(C(=O)CNc4ccc(C)cc4)c3ncn2n1)OC", "assay": "cell growth or viability, MTT", "setting": "48 h", "IC50": "0.074 µM"}
{"SMILES": "Cc1nn(C)cc1S(=O)(=O)NC(=O)c1ccc(-n2ccc(OCC(C)(C)C(F)(F)F)n2)nc1N1C[C@@H](C)CC1(C)C", "assay": "oxygen consumption rate, inhibitor, Seahorse Mito Stress Test", "setting": "1 h", "scale": "baseline: DMSO 0.2%", "IC50": "21.7 µM"}
{"SMILES": "CCSc1nnc(-c2ccc(-c3cc(OC)c(OC)c(OC)c3)nc2C)o1", "assay": "cell growth or viability, MTT", "IC50": "8.57 µM"}
{"SMILES": "N#Cc1c(-c2ccc(Cl)cc2)c2c(=O)[nH]c(CCl)nc2n(C2CCCCC2)c1=O", "assay": "cell growth or viability, MTT", "IC50": "2.1 µM"}
{"SMILES": "COc1ccccc1/C=N/NC(=O)c1ccc(-c2cc(OC)c(OC)c(OC)c2)nc1C", "assay": "cell growth or viability, MTT", "IC50": "6.55 µM"}
{"SMILES": "O=C(NN=C(c1ccccc1)c1ccccc1)/C(=C/c1ccc(F)cc1)NC(=O)c1ccccc1", "setting": "concentration not given", "IC50": "25.7 ± 1.04 µM"}
{"SMILES": "O=C(CN1CCN(c2nc3ccccc3[nH]c2=O)CC1)NCc1ccccc1", "assay": "cell growth or viability, MTT", "setting": "24 h", "IC50": "12.7 µM"}
{"SMILES": "O=C(N/N=C/c1ccc(F)cc1)/C(=C/c1ccc(F)cc1)NC(=O)c1ccccc1", "setting": "concentration not given", "IC50": "38.1 ± 1.88 µM"}
{"SMILES": "NC(N)=NC(=O)c1nc(Cl)c(N2CCCCCC2)nc1N", "assay": "cell viability, ATP content", "setting": "24 h", "IC50": "56 µM"}
{"SMILES": "CC(=O)OC[C@H]1O[C@@H](N2C(=O)/C(=C/c3ccccc3)SC2=S)[C@H](OC(C)=O)[C@@H](OC(C)=O)[C@@H]1OC(C)=O", "assay": "cell growth or viability, MTT", "setting": "48 h", "IC50": "8.2 µM"}
{"note": "Some of these lines once more:"}
{"SMILES": "N#Cc1c(-c2ccc(Cl)cc2)c2c(=O)[nH]c(CCl)nc2n(C2CCCCC2)c1=O", "assay": "cell growth or viability, MTT", "IC50": "2.1 µM"}
{"SMILES": "OCCN1CCN(CC/C=C2/c3ccccc3Sc3ccc(C(F)(F)F)cc32)CC1", "assay": "cell viability, ATP content", "setting": "24 h", "IC50": "62.8 µM"}
{"SMILES": "O=[N+]([O-])c1ccc(-n2nc(-c3cccs3)sc2=NN=C2CCCc3ccccc32)cc1", "assay": "cell growth or viability", "IC50": "68.9 µM"}
{"SMILES": "O=C(CN1CCN(c2nc3ccccc3[nH]c2=O)CC1)NCc1ccccc1", "assay": "cell growth or viability, MTT", "setting": "24 h", "IC50": "12.7 µM"}
{"SMILES": "Cc1ccc(NCC(=O)n2ncc3c(=N)n(N)cnc32)cc1", "assay": "cell growth or viability, MTT", "setting": "48 h", "IC50": "0.937 µM"}
{"SMILES": "CCOc1ccc(/C=N/NC(=O)c2ccc(-c3cc(OC)c(OC)c(OC)c3)nc2C)cc1", "assay": "cell growth or viability, MTT", "IC50": "36.3 µM"}
{"SMILES": "N#Cc1c(-c2ccc(Cl)cc2)c2c(=O)[nH]nnc2n(C2CCCCC2)c1=O", "assay": "cell growth or viability, MTT", "IC50": "0.99 µM"}
{"SMILES": "O=C(CN1CCN(c2nc3ccccc3[nH]c2=O)CC1)Nc1ccc([N+](=O)[O-])cc1", "assay": "cell growth or viability, MTT", "setting": "24 h", "IC50": "12.6 µM"}
